# Experimental data from different studies.
# Each line is one published result; not all experiments were run side by side. ± gives the spread as reported.
# GRPR: Gastrin-releasing peptide receptor (GRPR, Homo sapiens, UniProt P30550)
# Sequence of UniProt P30550 (whole entry, looked up): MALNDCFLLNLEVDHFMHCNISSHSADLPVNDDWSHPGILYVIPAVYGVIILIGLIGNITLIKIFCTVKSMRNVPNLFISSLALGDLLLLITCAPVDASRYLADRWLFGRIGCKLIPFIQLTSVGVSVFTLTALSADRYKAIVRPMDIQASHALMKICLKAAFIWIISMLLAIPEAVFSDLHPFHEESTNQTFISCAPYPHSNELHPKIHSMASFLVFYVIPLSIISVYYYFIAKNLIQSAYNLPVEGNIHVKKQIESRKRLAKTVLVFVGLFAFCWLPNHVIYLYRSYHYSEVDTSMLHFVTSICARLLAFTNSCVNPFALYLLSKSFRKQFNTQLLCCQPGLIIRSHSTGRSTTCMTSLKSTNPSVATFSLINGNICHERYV
# Sequence of UniProt P07363 (whole entry, looked up): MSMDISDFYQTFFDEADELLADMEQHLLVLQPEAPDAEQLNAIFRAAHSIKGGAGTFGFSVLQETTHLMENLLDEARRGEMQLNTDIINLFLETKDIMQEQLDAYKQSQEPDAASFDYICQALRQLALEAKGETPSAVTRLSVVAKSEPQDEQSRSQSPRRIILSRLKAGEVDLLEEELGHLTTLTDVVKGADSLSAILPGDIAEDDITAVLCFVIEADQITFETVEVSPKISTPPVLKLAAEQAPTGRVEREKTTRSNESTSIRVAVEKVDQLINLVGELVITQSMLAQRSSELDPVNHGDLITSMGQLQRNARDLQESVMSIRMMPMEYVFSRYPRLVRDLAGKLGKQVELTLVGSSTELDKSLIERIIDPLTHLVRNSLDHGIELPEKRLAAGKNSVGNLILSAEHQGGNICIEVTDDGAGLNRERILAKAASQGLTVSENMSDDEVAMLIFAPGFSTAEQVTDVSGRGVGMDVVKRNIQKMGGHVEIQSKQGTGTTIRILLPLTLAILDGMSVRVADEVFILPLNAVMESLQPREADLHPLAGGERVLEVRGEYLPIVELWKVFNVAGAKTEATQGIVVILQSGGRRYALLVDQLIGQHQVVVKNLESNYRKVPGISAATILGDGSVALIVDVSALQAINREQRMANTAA
# Sequence of UniProt P09936 (whole entry, looked up): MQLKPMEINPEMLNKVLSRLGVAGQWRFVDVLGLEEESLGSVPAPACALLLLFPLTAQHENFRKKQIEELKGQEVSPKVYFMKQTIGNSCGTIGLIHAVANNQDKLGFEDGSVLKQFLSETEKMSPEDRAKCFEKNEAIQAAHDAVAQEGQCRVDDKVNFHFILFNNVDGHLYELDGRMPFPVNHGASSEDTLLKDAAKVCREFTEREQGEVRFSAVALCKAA
# Sequence of UniProt Q09472 (whole entry, looked up): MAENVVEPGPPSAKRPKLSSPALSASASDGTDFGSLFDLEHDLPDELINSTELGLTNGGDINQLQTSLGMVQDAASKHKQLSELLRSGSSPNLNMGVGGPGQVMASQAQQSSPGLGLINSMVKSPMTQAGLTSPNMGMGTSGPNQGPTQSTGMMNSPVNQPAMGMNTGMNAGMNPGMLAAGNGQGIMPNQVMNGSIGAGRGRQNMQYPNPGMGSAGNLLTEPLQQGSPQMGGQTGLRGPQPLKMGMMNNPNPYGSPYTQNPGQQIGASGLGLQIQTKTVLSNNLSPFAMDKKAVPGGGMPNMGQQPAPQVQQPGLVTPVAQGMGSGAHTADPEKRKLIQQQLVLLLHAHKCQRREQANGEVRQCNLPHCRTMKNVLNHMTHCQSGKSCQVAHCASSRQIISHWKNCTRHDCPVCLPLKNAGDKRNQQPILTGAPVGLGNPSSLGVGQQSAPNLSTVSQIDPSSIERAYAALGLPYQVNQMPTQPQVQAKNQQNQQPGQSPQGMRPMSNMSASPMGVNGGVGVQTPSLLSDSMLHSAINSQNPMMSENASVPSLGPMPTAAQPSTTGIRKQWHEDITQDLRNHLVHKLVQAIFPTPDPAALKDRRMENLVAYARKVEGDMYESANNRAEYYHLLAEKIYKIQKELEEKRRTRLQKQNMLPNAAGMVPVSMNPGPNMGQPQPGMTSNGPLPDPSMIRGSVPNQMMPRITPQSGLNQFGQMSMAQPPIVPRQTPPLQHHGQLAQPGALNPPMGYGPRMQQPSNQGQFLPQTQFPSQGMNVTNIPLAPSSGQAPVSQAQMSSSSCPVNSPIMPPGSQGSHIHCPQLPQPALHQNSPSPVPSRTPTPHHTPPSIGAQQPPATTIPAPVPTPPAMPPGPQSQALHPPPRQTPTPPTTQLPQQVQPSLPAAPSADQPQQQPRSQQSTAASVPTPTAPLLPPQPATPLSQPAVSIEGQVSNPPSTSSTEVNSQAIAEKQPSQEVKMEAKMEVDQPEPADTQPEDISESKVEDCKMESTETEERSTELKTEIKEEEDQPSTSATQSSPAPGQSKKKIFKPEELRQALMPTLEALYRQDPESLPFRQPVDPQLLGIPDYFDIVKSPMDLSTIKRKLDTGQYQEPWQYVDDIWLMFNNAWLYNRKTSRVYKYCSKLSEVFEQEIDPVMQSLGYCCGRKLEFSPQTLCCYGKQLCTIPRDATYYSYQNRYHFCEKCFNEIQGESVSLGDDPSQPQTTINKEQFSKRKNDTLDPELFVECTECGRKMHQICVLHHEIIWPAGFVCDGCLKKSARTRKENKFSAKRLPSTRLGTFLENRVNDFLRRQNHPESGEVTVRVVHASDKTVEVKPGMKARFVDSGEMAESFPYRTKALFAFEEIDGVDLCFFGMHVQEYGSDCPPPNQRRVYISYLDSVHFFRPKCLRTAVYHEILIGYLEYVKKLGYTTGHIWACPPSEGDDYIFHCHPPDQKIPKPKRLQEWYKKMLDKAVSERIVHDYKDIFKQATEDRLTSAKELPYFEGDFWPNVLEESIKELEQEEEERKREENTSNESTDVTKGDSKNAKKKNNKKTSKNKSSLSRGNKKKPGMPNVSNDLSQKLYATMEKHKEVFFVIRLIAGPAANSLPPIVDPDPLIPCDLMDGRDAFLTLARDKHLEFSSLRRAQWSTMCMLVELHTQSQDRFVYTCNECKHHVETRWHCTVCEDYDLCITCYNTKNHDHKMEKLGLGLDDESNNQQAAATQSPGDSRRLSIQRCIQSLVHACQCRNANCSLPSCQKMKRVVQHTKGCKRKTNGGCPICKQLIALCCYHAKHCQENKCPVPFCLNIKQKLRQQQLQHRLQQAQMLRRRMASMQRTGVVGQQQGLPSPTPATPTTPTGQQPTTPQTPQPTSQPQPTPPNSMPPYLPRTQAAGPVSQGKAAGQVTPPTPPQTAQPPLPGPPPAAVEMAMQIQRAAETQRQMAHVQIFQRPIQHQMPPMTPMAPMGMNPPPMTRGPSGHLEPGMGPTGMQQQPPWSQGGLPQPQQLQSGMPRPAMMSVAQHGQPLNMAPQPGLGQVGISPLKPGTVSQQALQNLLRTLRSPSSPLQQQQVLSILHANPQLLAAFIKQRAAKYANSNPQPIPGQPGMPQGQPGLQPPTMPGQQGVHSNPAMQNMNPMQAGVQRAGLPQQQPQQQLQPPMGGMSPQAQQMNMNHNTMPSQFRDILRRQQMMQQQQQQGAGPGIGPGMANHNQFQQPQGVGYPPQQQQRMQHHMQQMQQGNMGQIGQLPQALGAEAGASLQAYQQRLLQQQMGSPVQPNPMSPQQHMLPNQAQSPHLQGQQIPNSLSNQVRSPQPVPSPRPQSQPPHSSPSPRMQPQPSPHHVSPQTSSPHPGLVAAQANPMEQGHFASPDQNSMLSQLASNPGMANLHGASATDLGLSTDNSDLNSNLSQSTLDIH
# Sequence of UniProt Q8NER1 (whole entry, looked up): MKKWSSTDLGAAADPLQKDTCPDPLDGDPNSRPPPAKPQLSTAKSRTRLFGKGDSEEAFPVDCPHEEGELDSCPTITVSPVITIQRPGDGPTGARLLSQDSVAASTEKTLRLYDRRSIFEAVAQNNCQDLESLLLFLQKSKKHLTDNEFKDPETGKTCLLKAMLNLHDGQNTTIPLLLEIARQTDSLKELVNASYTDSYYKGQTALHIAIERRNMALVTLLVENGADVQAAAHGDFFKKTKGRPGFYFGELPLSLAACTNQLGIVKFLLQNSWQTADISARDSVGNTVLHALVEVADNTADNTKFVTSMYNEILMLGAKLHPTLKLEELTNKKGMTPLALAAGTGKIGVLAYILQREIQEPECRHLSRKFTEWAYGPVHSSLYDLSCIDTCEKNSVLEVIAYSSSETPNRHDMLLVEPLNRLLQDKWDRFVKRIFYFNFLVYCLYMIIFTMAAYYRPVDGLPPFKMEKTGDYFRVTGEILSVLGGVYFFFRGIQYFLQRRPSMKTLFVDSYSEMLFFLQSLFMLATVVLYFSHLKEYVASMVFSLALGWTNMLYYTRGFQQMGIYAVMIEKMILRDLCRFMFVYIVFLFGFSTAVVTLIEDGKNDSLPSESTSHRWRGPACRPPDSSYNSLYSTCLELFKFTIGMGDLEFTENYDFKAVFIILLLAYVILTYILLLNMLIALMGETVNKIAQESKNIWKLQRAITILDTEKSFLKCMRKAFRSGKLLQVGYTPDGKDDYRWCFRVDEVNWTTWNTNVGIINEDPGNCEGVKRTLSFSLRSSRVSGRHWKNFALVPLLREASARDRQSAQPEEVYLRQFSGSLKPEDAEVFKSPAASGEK
# Sequence of UniProt Q9NTG7 (whole entry, looked up): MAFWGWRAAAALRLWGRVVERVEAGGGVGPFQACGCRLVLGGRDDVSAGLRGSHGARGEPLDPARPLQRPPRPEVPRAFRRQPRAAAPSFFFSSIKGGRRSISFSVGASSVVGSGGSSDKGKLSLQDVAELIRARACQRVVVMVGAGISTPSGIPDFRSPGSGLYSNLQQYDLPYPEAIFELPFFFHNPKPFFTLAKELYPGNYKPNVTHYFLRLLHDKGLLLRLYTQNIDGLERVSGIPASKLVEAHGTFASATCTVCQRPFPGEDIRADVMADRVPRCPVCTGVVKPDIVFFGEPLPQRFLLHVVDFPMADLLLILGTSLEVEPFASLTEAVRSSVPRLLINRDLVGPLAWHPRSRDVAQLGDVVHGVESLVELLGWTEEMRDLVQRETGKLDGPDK
# Sequence of UniProt P00441 (whole entry, looked up): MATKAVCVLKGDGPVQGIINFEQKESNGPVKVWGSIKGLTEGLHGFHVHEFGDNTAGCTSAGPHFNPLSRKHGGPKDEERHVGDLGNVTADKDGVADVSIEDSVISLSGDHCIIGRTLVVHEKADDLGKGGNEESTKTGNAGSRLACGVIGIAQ
SMILES,target,test,system,conditions,IC50 [µM]
Cc1nc(N)ccc1-c1cc(Cl)cc(C(F)(F)F)c1,"E3 ubiquitin-protein ligase CHIP (STUB1, Homo sapiens, UniProt Q9UNE7)","proteasome ubiquitylation, inhibitor, immunoblot",,,85.4
NC(=O)[C@@H]1CSc2ccc(cc2)C[C@H](NC(=O)CCc2cccc([N+](=O)[O-])c2)C(=O)N[C@@H](C2CCCCC2)C(=O)NCC2(CCCCC2)CC(=O)N1,"Histone acetyltransferase p300 (EP300, Homo sapiens, UniProt Q09472)","enzyme activity, inhibitor, radiometric",,,3
CCNC(=O)[C@H](CC(C)C)NC(=O)[C@H](Cc1c[nH]cn1)NC(=O)CNC(=O)[C@@H](NC(=O)[C@H](C)NC(=O)[C@H](Cc1c[nH]c2ccccc12)NC(=O)[C@H](CCC(N)=O)NC(=O)[C@@H](Cc1ccccc1)NC(=O)C(C)F)C(C)C (some centres unmarked),GRPR,"ligand displacement, radioligand",,,0.0557
O=c1c(/C=N/NC(=S)N/N=C/c2ccccn2)coc2ccccc12,"Superoxide dismutase [Cu-Zn] (SOD1, Homo sapiens, UniProt P00441)","enzyme activity, inhibitor",HeLa,24 h,1.46
CC(C)C[C@@H](CN[C@H](Cc1ccccc1)C(N)=O)NC(=O)[C@H](Cc1c[nH]cn1)NC(=O)CNC(=O)[C@@H](NC(=O)[C@H](C)NC(=O)[C@H](Cc1c[nH]c2ccccc12)NC(=O)[C@H](CCC(N)=O)NC(=O)[C@H](N)Cc1ccccc1)C(C)C,GRPR,"inositol phosphate generation, antagonist",HuTu80,with: GRP,0.24 ± 0.026
Cc1cc2c(NC(=O)N[C@@H]3CC(C)(C)Oc4cc(C(F)(F)F)ccc43)cccc2cn1,"Transient receptor potential cation channel subfamily M member 8 (TRPM8, Homo sapiens, UniProt Q7Z2W7)",cell-based,,,30
O=C(COc1cc2ccccc2cc1C(=O)NCc1ccccc1)Nc1ccccc1N1CCCC1=O,"Voltage-dependent L-type calcium channel subunit alpha-1C (CACNA1C, Homo sapiens, UniProt Q13936)","calcium signal, fluorescence",,,10.4
CN(C)c1ccc2c3c(cccc13)C(=O)N(CCS)C2=O,"Metallo-beta-lactamase VIM-2 (VIM-2, Escherichia coli, UniProt Q5U7L7)","enzyme activity, inhibitor",,pH 7,0.11
CCC1(CC)C[C@@H](NC(=O)Nc2cccc3c(C)nccc23)c2cc(F)ccc2O1,"Transient receptor potential cation channel subfamily V member 1 (TRPV1, Homo sapiens, UniProt Q8NER1)","calcium signal, fluorescence",,pH 5,> 37.5
c1ccc(CCNc2ncnc3[nH]cnc23)cc1,"Chemotaxis protein CheA (Escherichia coli, UniProt P07363)","enzyme activity, inhibitor, radiometric",,,478
CCCCCCCCCCCCCC(=S)NCCCC[C@H](NC(=O)[C@@H]1CCCN1C(=O)[C@@H](N)CC(C)C)C(=O)N[C@@H](CCCCN)C(=O)N[C@H](C(=O)O)[C@@H](C)O,"NAD-dependent protein deacetylase sirtuin-3, mitochondrial (SIRT3, Homo sapiens, UniProt Q9NTG7)",,,,8
CC1=CC(C)=[N+]2C1=C(CCCCc1cn(CC(=O)N3CCc4nc(NC(=O)[C@H]5CCN(C#N)C5)sc4C3)nn1)c1c(C)cc(C)n1[B-]2(F)F,"Ubiquitin carboxyl-terminal hydrolase isozyme L1 (UCHL1, Homo sapiens, UniProt P09936)","enzyme activity, inhibitor, fluorescence",,with preincubation,~1
N=C(N)NCCC[C@@H](NC(=O)CCCCCNC(=O)c1ccc(-c2ccnc(N)n2)s1)C(=O)NCCCCCC(=O)N[C@H](CCCNC(=N)N)C(=O)N[C@H](CCCNC(=N)N)C(=O)N[C@H](CCCNC(=N)N)C(=O)N[C@H](CCCNC(=N)N)C(=O)N[C@H](CCCNC(=N)N)C(=O)N[C@H](CCCNC(=N)N)C(=O)N[C@H](CCCCN)C(N)=O,"cGMP-dependent protein kinase 1, isoform alpha (PRKG1, Bos taurus, UniProt P00516)","kinase activity, inhibitor, radiometric",,with: ATP 100 µM and peptide 11 µM and cGMP,0.00145
CC(C)=CCN=C(N)NCCC[C@@H](NC(=O)CCCc1ccc(O)cc1)C(=O)N[C@@H](Cc1ccccc1)C(O)CC(=O)N[C@@H](Cc1ccc(O)cc1)C(=O)O (stereo in doubt),"Disintegrin and metalloproteinase domain-containing protein 10 (ADAM10, Homo sapiens, UniProt O14672)","enzyme activity, inhibitor",,,> 100

# For quick reference, copied from above:
SMILES,target,test,system,conditions,IC50 [µM]
Cc1cc2c(NC(=O)N[C@@H]3CC(C)(C)Oc4cc(C(F)(F)F)ccc43)cccc2cn1,"Transient receptor potential cation channel subfamily M member 8 (TRPM8, Homo sapiens, UniProt Q7Z2W7)",cell-based,,,30
O=C(COc1cc2ccccc2cc1C(=O)NCc1ccccc1)Nc1ccccc1N1CCCC1=O,"Voltage-dependent L-type calcium channel subunit alpha-1C (CACNA1C, Homo sapiens, UniProt Q13936)","calcium signal, fluorescence",,,10.4
